# Measured values from different studies.
# Parts stem from different laboratories: compare values within a part only. Changes are numbered by the printed parent chain.

# Set 1
# Target: Interferon regulatory factor 5, full length, phosphomimetic (IRF5, Homo sapiens, UniProt Q13568-2, residues 1-514, K96S/S451D/S453D/S456D/S462D)
# Technique: protein-binding microarray
# Molecule type: double-stranded DNA, one strand shown
# Sample: in vitro
# Concentration: 250 nM
# Setting: 60-bp whole probe
# Added: salmon DNA 0.4 mg/ml
# Reference: random background probes
# Direction: higher = stronger binding
# Constant ends, left off below: GCCTAGCAC … GTCTTGATTCGCTTGACGCTGCTG
Strand,log fluorescence
GACGGTATCGGGTTTCGAGACGTGCTA,4.06 z-score
TTAGGACAGCTTCTCCTTTAGTGCTAG,-0.456 z-score
TTAGGTTTCGACACTGGGTTAGTGCTA,5.56 z-score
TTAGGTATCGGGTTTCGGATAGTGCTA,5.81 z-score
ATAGGTATCGGTATCGGTTAGTGCTAG,9.46 z-score
CCATACTTCCCACTGGTCTTGTGCTAG,0.17 z-score
TCACTTCTGGGCTGTTTAACTGTGCTA,0.3 z-score
TTAGATCTCACTATCGATTAGTGCTAG,7.77 z-score
GACGCTTTCCTTTCCCTGACGTGCTAG,1.42 z-score
GACGATCTCAGTCTCAAGACGTGCTAG,-0.339 z-score
TCACTTATCCCTAATCTCACTGTGCTA,0.693 z-score
GACGGTATTGGTATCGGGACGTGCTAG,1.78 z-score
GACGGACTGGGGTTTCGGCACGTGCTA,1.39 z-score
GACGGTATCAGTCTCGGGACGTGCTAG,1.06 z-score
TCACTCTTCTGCTTCCTACTGTGCTAG,0.72 z-score
GACAGTATCGGTTTCGGGACGTGCTAG,10.1 z-score
GACGGTGCCGGTTTCGGGACGTGCTAG,2.12 z-score
AGAGTCACCCATCTCAGCAAGTGCTAG,-0.598 z-score
GACGGTATCGGTCTCGGGTCGTGCTAG,5.76 z-score

# Set 2
# Target: CCNA1, cyclin fold, Cln2 fusion (human)
# Technique: yeast growth competition, sequencing
# Sample: yeast
# Setting: strong parent motif
# Reference: not given
# Direction: higher = stronger binding
# Starting sequence: E2F1 docking peptide (human); PPVKRRLDFETDH; partner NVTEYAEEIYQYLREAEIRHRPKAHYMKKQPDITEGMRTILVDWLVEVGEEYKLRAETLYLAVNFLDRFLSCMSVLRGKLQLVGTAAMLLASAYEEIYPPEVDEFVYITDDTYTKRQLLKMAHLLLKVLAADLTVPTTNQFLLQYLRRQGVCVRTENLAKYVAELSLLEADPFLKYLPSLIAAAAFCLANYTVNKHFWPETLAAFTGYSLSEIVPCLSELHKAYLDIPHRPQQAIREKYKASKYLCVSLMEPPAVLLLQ
Variant,normalised enrichment score
PPVKRRLDRETDH [F9R],0.43
PPVKRRLDFENDH [T11N],1.94
PPVKRRKDFETDH [L7K],0.374
PPVKCRLDFETDH [R5C],0.309
PPVKRRVDFETDH [L7V],0.524
PPVKRRLDFEWDH [T11W],1.78
PPVKRRLDFEIDH [T11I],1.89
PPVKRCLDFETDH [R6C],1.68
PPVKRRLDFNTDH [E10N],2
PPVKRRLHFETDH [D8H],1.27
PPVKRRLDFEYDH [T11Y],1.65
PPVKWRLDFETDH [R5W],-0.057
PPCKRRLDFETDH [V3C],1.63
PPVKRRLDFRTDH [E10R],1.33

# Set 3
# Target: Histone acetyltransferase KAT6A, both winged helices, GST fusion (KAT6A, Homo sapiens, UniProt Q92794, residues 1-181)
# Technique: protein binding microarray
# Molecule type: double-stranded DNA, one strand shown
# Sample: in vitro
# Concentration: not given
# Setting: 8-mer, flanks averaged, mean of 2 arrays, mostly near background
# Reference: not given
# Direction: higher = stronger binding
# Residues (chain): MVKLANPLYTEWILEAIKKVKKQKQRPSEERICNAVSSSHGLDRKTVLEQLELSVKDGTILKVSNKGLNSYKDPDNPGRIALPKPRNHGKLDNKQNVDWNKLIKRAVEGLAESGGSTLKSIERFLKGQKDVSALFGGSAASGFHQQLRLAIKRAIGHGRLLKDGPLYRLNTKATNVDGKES
Strand,E-score
AAAAAAGG,-0.0766
CCACATAA,0.107
CATCGGGG,0.0993
CATGCTGG,-0.221
CTTTTCTA,-0.192
ATTATTGG,-0.0496
AATTACCG,0.207
ATACTCTC,-0.158
GACGCCAA,-0.00148
ATTGGAGA,-0.0258
GTCGGCCA,0.0821
ACATTCCT,-0.228
AGGTCGGG,0.0398
ACGGACAT,0.246
AGTAGTAT,-0.0596
ACTTTAAG,-0.0186
GTGAATAA,-0.0959
CGGCTCGC,0.2
ATACCAAC,-0.0149

# Set 4
# Substance: PhoQ, residues 284 288 289 292 302 303 TASMAF
# Technique: Sort-seq
# Measured: YFP reporter
# Sample: E. coli
# Setting: PhoQ-PhoP variant library
# Added: 10 µM Mg2+
# Reference: high Mg2+ state
# Direction: higher = stronger signaling
target,fold induction
"PhoP, residues 12 14 15 18 19 VGHWL (Escherichia coli, UniProt P23836)",11.5
"PhoP, residues 12 14 15 18 19 LHHYF (Escherichia coli, UniProt P23836)",22.9
"PhoP, residues 12 14 15 18 19 TPWTL (Escherichia coli, UniProt P23836)",10.5
"PhoP, residues 12 14 15 18 19 NFFVT (Escherichia coli, UniProt P23836)",14.5

# A few entries again (set 4):
target,fold induction
"PhoP, residues 12 14 15 18 19 LHHYF (Escherichia coli, UniProt P23836)",22.9
"PhoP, residues 12 14 15 18 19 TPWTL (Escherichia coli, UniProt P23836)",10.5
"PhoP, residues 12 14 15 18 19 VGHWL (Escherichia coli, UniProt P23836)",11.5
"PhoP, residues 12 14 15 18 19 NFFVT (Escherichia coli, UniProt P23836)",14.5
